Published values collected from several papers.
Protocols differ between the studies behind these lines. “And” joins repeats or separate records; there may be more than shown.

Molecule | tested on | assay | test system | conditions | scale | endpoint | value
RASANLAATK |  | AIM | peptide, CD8+ T cells from PBMC, human donors | HLA-A*03:01 restricted, unit not given | reference: positive over tested donors | frequency of responding donors | 25
Nc1ncnc2c([C@@H]3N[C@H](CO)[C@@H](O)[C@H]3O)c[nH]c12 | Zaire ebolavirus | antibody staining | human macrophages | 0.4 µM |  | antigen-positive cells | 40.6%
CC[C@H](C)[C@H](NC(=O)[C@H](CC(C)C)NC(=O)[C@H](Cc1c[nH]c2ccccc12)NC(=O)[C@H](CCC(N)=O)NC(=O)[C@@H](NC(=O)[C@H](Cc1ccccc1)NC(=O)[C@H](C)NC(=O)[C@H](CCCCNC(=O)COCCOCCNC(=O)COCCOCCNC(=O)CC[C@H](NC(=O)CCCCCCCCCCCCCCCCCCC(=O)O)C(=O)O)NC(=O)[C@H](CCC(N)=O)NC(=O)[C@H](C)NC(=O)[C@@H](NC(=O)[C@H](CCCCN)NC(=O)[C@H](CC(=O)O)NC(=O)[C@H](CC(C)C)NC(=O)C(C)(C)NC(=O)[C@@H](NC(=O)[C@H](CO)NC(=O)[C@H](Cc1ccc(O)cc1)NC(=O)[C@H](CC(=O)O)NC(=O)[C@H](CO)NC(=O)[C@@H](NC(=O)[C@H](Cc1ccccc1)NC(=O)[C@@H](NC(=O)CNC(=O)[C@H](CCC(=O)O)NC(=O)C(C)(C)NC(=O)[C@@H](N)Cc1ccc(O)cc1)[C@@H](C)O)[C@@H](C)O)[C@@H](C)CC)[C@@H](C)CC)C(C)C)C(=O)N[C@@H](C)C(=O)NCC(=O)NCC(=O)N1CCC[C@H]1C(=O)N[C@@H](CO)C(=O)N[C@@H](CO)C(=O)NCC(=O)N[C@@H](C)C(=O)N1CCC[C@H]1C(=O)N1CCC[C@H]1C(=O)N1CCC[C@H]1C(=O)N[C@@H](CO)C(N)=O |  |  | patients with type 2 diabetes | 0.5 mg, day 29, proof of concept, LS mean | reference: baseline | diastolic blood pressure change | 1.79 mmHg
O=C1/C(=C/c2ccc(Cl)c(Cl)c2)CNC/C1=C\c1ccc(Cl)c(Cl)c1 | Replicase polyprotein 1ab, main protease (rep, Severe acute respiratory syndrome coronavirus 2, UniProt P0DTD1) | viral replication, Gluc reporter | SARS-CoV-2 | 20 µM |  | inhibition | -1.58%
IPIQASLPF | human PBMC CD8+ T cells | T cell response | peptide |  |  | positive donors | 2 donors and 1 donors

Some of these lines once more:
Molecule | tested on | assay | test system | conditions | scale | endpoint | value
IPIQASLPF | human PBMC CD8+ T cells | T cell response | peptide |  |  | positive donors | 2 donors and 1 donors
